Results collected from several papers.
Each numbered part is a random draw from the data of one study; scales do not carry over between parts. Changes are numbered by the printed parent chain.

Series 1 — target: CCNF, cyclin fold, Cln2 fusion (human); method: yeast growth competition, sequencing; medium: yeast; notes: strong parent motif; reference: not given; direction: higher = stronger binding
Starting sequence: SLBP docking peptide (human); ARYKRKLLINDFG
Variant | normalised enrichment score
Y3S | 2.27
I9K | 2.07
L8R | 1.19
I9N | 1.63
R5G | 1.37
A1I | 1.66
D11L | 3.19
I9D | 0.993
F12A | 1.56
G13R | 1.56
I9R | 1.5
R2Y | 1.69
I9A | 1.62
R5N | 1.09
L7E | 0.495
G13M | 2.01
A1D | 1.69
Y3T | 2.57
A1C | 1.56
G13K | 1.68
A1S | 1.49
L8D | 2.18
Y3A | 4.82
K4G | 1.16
L8T | 0.908

Series 2 — method: RNA Bind-n-Seq; form: RNA; medium: in vitro; concentration: not given; reference: input RNA pool; direction: higher = stronger binding
Target: RING finger protein unkempt homolog, zinc fingers 1-6, GST-SBP tag (UNK, Homo sapiens, UniProt Q9C0B0, residues 30-357)
Chain of UniProt Q9C0B0 (30-357, looked up): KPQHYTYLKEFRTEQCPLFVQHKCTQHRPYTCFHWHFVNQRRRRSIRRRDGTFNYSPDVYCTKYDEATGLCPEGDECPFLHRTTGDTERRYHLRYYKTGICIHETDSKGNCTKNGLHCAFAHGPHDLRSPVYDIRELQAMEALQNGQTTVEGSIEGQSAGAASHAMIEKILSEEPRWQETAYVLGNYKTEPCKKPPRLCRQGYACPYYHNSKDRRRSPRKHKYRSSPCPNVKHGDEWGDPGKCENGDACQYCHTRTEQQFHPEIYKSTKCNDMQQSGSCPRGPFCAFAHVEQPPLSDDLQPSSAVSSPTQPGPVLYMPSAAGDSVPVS
Notes: RNA with constant flanks, human-mouse chimeric sites, ends assumed
All sequences stand within: GGGAGUUCUACAGUCCGACGAUC … CAACAGAGGAUUGAGCAUCA
Strand | bound/input enrichment [ratio]
UUGAAAACUGAUUCAAGCAAGUUUGAAUAUCACAAUGUUAGCUUUCUAAUUCCACACAAGUACUUGGUUUUUACAGUUUAUAAUCUGACAUCACCCCAGCGCCAUUUGUAAAGAGCAACU | 0.6
ACUCAGAGAUCCACCUCCCAAAGUGCUCUGGAGCUCUGUGUGGCCACCACACCUAACUUGAUGGAUAUAUAUUUUUUUUAAUAUGAAUCUUCCUGUUCGUCCAGGGAGCAAGAACGGGUU | 0.517
AAUUUCCUGUCAUACUUUUUAGACAUUCACAUCAGACUUACAGAGCAUUGGGCCUCUUUCUAGGUUUGUGUUAUUUCUCAGCUAUGGGGGUAUGAUUAUGAGAACACUGCUUAACUAAUG | 0.6
UACUGCUGCUUUCAACUUAAAUCACUGAGGCAUCUCUACUGUUCUGUGAGCAUCAGGAUUUUAGUGCUGUGUCACCACAUGAGAGUUCAGAAGCAGCCUUUCUGUGGAGGGUGGGAAUGA | 0.174
UGACAAGCACGAGCAUCGGCCAUGCCUUUCCUUGACAUACAGAAAAAGCUGGGCAUCAGCCUGGACCGGCACUUUAUGUUCCUAAGCGCAGAACAGCCCUAUAAGAACGCCGCUCGGUGC | 0.101
GAGUCGAGCAAACUUGAAACAAUUCGUUAUCUUGCAGAGCUUCGGUGCACUUGCUUGGCGAUAGCAUUGGGGUUUUAUAGGUUCUGGGGAAGUAGUAGACGAUGAUGCUGCCGCUGCUGC | 1.03
GGACAUCUGUCAAAUUGUUAUGUUCCUGUGAAACAAGUGAGCACUUUGAUACACUUCAUCUGCUUGUACAUUUAACUGAUAGAGAAAUGUAAAUAUGUUAAUCCAAGCAAUGUGUCACUU | 0.35
UGUAGUUUCUUGAUUUAGUGGCUGGGCCUUUUCUUUCUUUCCUUUAGGAAAAGCCUAAAGAUUAGACUGUAAGAAAAACAGAAGCCAUGUUUCGAAGACCUGUGUUACAGGUAUUUCGUC | 0.308
AUAGAUGAAAUUGAUGUAGAUCAGGAAGGAAUUGCUGAAAUGAUCCUGGAUGAAAAUGCUAUUGCUCAAGUUCCACGCCCUGGCACAUCUUUGAAGCUCCCUGGCACUAACCAAACAGGA | 0.446
UAAAUCCUGUGCCAGCACUUCGCUCAUAAAGUUUUAAAUUCUGGACCAAUAGUGUUUGUUUCCUGAUUAUUGUAUCCAAUACUUUAUCUAGUAUGUAACUCACUCUUACUGAUAAUAAAA | 1.68
GUGUCCUGCUUUCAACUUAAAUCACUGAGGCAUCUCUACUGUUCUGUGAGCAUCAGGACUGUAGCGCUUGCCACCACCAUGAGAGUUCAGAAGCAGCCUUUCUGUGGAGGGUGGGAAUGA | 0.12

Series 3 — method: protein-binding microarray; form: double-stranded DNA, one strand shown; medium: in vitro; concentration: 2200 nM top; notes: 60-bp whole probe; added: salmon DNA 0.4 mg/ml; reference: random background probes; direction: higher = stronger binding; all sequences stand within: GCCTAGCAC … GTCTTGATTCGCTTGACGCTGCTG
Target: Interferon regulatory factor 7, full length, phosphomimetic (IRF7, Homo sapiens, UniProt Q92985, residues 1-503, S471D/S472D/S475D/S476D/S477D/S483D/S484D/S487D)
Residues (chain): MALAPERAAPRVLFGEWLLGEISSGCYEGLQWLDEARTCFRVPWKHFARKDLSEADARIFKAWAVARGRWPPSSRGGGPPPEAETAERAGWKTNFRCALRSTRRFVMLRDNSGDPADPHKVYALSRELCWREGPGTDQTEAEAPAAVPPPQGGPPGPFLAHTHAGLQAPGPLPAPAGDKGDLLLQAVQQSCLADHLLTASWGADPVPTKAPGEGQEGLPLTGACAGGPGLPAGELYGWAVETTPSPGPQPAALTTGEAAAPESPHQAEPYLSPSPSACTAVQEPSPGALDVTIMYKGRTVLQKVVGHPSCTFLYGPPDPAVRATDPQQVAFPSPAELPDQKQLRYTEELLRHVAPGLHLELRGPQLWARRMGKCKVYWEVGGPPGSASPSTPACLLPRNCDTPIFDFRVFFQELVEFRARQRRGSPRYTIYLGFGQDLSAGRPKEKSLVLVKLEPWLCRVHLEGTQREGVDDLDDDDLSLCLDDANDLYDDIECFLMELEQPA
Strand | fitted relative affinity
GACGATCTCGGGTATCGAGACGTGCTA | -0.0726 z-score
ATAGGTTTCGGGTATCGGTTAGTGCTA | 6.51 z-score
GACGAACTGGGACTGGAGACGTGCTAG | -0.321 z-score
CACGGTTTCGGGACTGGGGACGTGCTA | 3.84 z-score
TTAGGACCGGGGTTTCGGTTAGTGCTA | 2.48 z-score
TGAGGTTTCGGTATCGGTTAGTGCTAG | 6.97 z-score
TTAGAACTGGGGATTGGATTAGTGCTA | -0.212 z-score
GACGGACTGCTGCTGCTGACGTGCTAG | -0.137 z-score
TTAGGACCGGGTCTCGGTTAGTGCTAG | -0.345 z-score
GACGGTATCGACACTGGGGAAGTGCTA | -0.534 z-score
AGATTTTTATCAAATGTGGGAGTGCTA | -0.703 z-score
GTAGGTCTCCTTCTCCTTTAGTGCTAG | 1.19 z-score
TTTTTTTTTACTTCGGGTGAGTGCTAG | 2.26 z-score
TTGCTTGTGTTTATTGTGACGTGCTAG | 1.15 z-score
TTAGGTCTCGGTATTGGTTAGTGCTAG | 0.779 z-score
CCCCCAGGATTCAATTACCAGTGCTAG | -0.708 z-score
TTAGAACTGAGGCTCGATTAGTGCTAG | -0.641 z-score
GACAATCTCAGTCTCGAGACGTGCTAG | 0.427 z-score
TTGGATTTCGGGACTGGATTAGTGCTA | 1.32 z-score
GACGATTTCAGTTTCAAGACGTGCTAG | 2.58 z-score
TCACCTCTTTCTTTGCTACTGTGCTAG | 2.37 z-score
TCAGAAATCTCAATGGGACTGTGCTAG | -0.501 z-score
TTAGGACTGGGGCCTGGGTTAGTGCTA | -1.23 z-score
GACGAACTGAGAGTGGAGACGTGCTAG | -0.364 z-score
CACAGGCTGCACAGAATGTAGTGCTAG | -0.46 z-score

Series 4 — method: DHFR PCA, deep sequencing; medium: yeast; added: (+)-ABA 0 µM; reference: wild-type fitted maximum; direction: higher = stronger binding
Target: ABI1, truncated, D143A, DHFR fusion (Arabidopsis thaliana)
Notes: methotrexate growth selection, single substitutions
Starting sequence: PYL1, truncated, DHFR fusion (Arabidopsis thaliana); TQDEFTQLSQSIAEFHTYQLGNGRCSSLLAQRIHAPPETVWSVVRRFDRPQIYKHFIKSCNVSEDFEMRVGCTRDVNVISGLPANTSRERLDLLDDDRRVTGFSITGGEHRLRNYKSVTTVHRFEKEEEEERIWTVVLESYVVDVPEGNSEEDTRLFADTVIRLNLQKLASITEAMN
Variant | relative binding score [%]
D159S | -6.97
S9L | 31.5
T135Q | -11.4
R32D | -0.986
R88D | 2.33
T101W | -2.71
P37R | 0.482
F47E | -1.92
W41K | -1.94
T160G | -5.03
S104H | -6.69
V76N | -4.39
E128L | 7
R123P | 22.2
D153T | -0.898
N85Y | 63.6
E131P | 54.4
W134N | 10.5
Y53G | -0.639

Repeated from above (series 3):
Strand | fitted relative affinity
GTAGGTCTCCTTCTCCTTTAGTGCTAG | 1.19 z-score
TCACCTCTTTCTTTGCTACTGTGCTAG | 2.37 z-score
CACAGGCTGCACAGAATGTAGTGCTAG | -0.46 z-score
TGAGGTTTCGGTATCGGTTAGTGCTAG | 6.97 z-score
TTAGAACTGGGGATTGGATTAGTGCTA | -0.212 z-score
